Experimental data of several laboratories.
Protocols differ between the studies behind these lines.
Technique: steady-state kinetics
B1: FMO3 N61S (Homo sapiens, UniProt P31513); chain GKKVAIIGAGVSGLASIRSCLEEGLEPTCFEKSNDIGGLWKFSDHAEEGRASIYKSVFSSSSKEMMCFPDFPFPDDFPNFMHNSKIQEYIIAFAKEKNLLKYIQFKTFVSSVNKHPDFATTGQWDVTTERDGKKESAVFDAVMVCSGHHVYPNLPKESFPGLNHFKGKCFHSRDYKEPGVFNGKRVLVVGLGNSGCDIATELSRTAEQVMISSRSGSWVMSRVWDNGYPWDMLLVTRFGTFLKNNLPTAISDWLYVKQMNARFKHENYGLMPLNGVLRKEPVFNDELPASILCGIVSVKPNVKEFTETSAIFEDGTIFEGIDCVIFATGYSFAYPFLDESIIKSRNNEIILFKGVFPPLLEKSTIAVIGFVQSLGAAIPTVDLQSRWAAQVIKGTCTLPSMEDMMNDINEKMEKKRKWFGKSETIQTDYIVYMDELSSFIGAKPNIPWLFLTDPKLAMEVYFGPCSPYQFRLVGPGQWPGARNAILTQWDRSLKPMQTRVVGRLQKPCFFFHWLKLFAIPILLIAVFLVLT
B2: COMT (Homo sapiens, UniProt P21964); chain MPEAPPLLLAAVLLGLVLLVVLLLLLRHWGWGLCLIGWNEFILQPIHNLLMGDTKEQRILNHVLQHAEPGNAQSVLEAIDTYCEQKEWAMNVGDKKGKIVDAVIQEHQPSVLLELGAYCGYSAVRMARLLSPGARLITIEINPDCAAITQRMVDFAGVKDKVTLVVGASQDIIPQLKKKYDVDTLDMVFLDHWKDRYLPDTLLLEECGLLRKGTVLLADNVICPGAPDFLAHVRGSSCFECTHYQSFLEYREVVDGLEKAIYKGPGSEAGP
B3: enzyme R228K (Arabidopsis thaliana, UniProt O82390); chain MNARALLCSSNIHSLYTSNRPPEKTSSSRSLRNLKPSPKSLRVWIYPRNRSSVFRVLVRSSDKSESSNSYYVEGDKVSGNNDVVSDSPSSIVLPWWEEFPKRWVIVLLCFSAFLLCNMDRVNMSIAILPMSAEYGWNPATVGLIQSSFFWGYLLTQIAGGIWADTVGGKRVLGFGVIWWSIATILTPVAAKLGLPYLLVVRAFMGVGEGVAMPAMNNILSKWVPVQEKSRSLALVYSGMYLGSVTGLAFSPFLIHQFGWPSVFYSFGSLGTVWLTLWLTKAESSPLEDPTLLPEERKLIADNCASKEPVKSIPWRLILSKPPVWALISCHFCHNWGTFILLTWMPTYYHQVLKFNLMESGLLSVFPWMTMAISANAGGWIADTLVSRGFSVTNVRKIMQTIGFLGPAFFLTQLKHIDSPTMAVLCMACSQGTDAFSQSGLYSNHQDIAPRYSGVLLGLSNTAGVLAGVLGTAATGHILQHGSWDDVFTISVGLYLVGTVIWNLFSTGEKIID
B4: enzyme D382A (Arabidopsis thaliana, UniProt O82390); chain MNARALLCSSNIHSLYTSNRPPEKTSSSRSLRNLKPSPKSLRVWIYPRNRSSVFRVLVRSSDKSESSNSYYVEGDKVSGNNDVVSDSPSSIVLPWWEEFPKRWVIVLLCFSAFLLCNMDRVNMSIAILPMSAEYGWNPATVGLIQSSFFWGYLLTQIAGGIWADTVGGKRVLGFGVIWWSIATILTPVAAKLGLPYLLVVRAFMGVGEGVAMPAMNNILSKWVPVQERSRSLALVYSGMYLGSVTGLAFSPFLIHQFGWPSVFYSFGSLGTVWLTLWLTKAESSPLEDPTLLPEERKLIADNCASKEPVKSIPWRLILSKPPVWALISCHFCHNWGTFILLTWMPTYYHQVLKFNLMESGLLSVFPWMTMAISANAGGWIAATLVSRGFSVTNVRKIMQTIGFLGPAFFLTQLKHIDSPTMAVLCMACSQGTDAFSQSGLYSNHQDIAPRYSGVLLGLSNTAGVLAGVLGTAATGHILQHGSWDDVFTISVGLYLVGTVIWNLFSTGEKIID
B5: CMBL (Homo sapiens, UniProt Q96DG6); chain MANEAYPCPCDIGHRLEYGGLGREVQVEHIKAYVTKSPVDAGKAVIVIQDIFGWQLPNTRYIADMISGNGYTTIVPDFFVGQEPWDPSGDWSIFPEWLKTRNAQKIDREISAILKYLKQQCHAQKIGIVGFCWGGTAVHHLMMKYSEFRAGVSVYGIVKDSEDIYNLKNPTLFIFAENDVVIPLKDVSLLTQKLKEHCKVEYQIKTFSGQTHGFVHRKREDCSPADKPYIDEARRNLIEWLNKYM
B6: UGT3A2 Y74N (Homo sapiens, UniProt Q3SY77); chain AKILTISTVGGSHYLLMDRVSQILQDHGHNVTMLNHKRGPFMPDFKKEEKSNQVISWLAPEDHQREFKKSFDFFLEETLGGRGKFENLLNVLEYLALQCSHFLNRKDIMDSLKNENFDMVIVETFDYCPFLIAEKLGKPFVAILSTSFGSLEFGLPIPLSYVPVFRSLLTDHMDFWGRVKNFLMFFSFCRRQQHMQSTFDNTIKEHFTEGSRPVLSHLLLKAELWFINSDFAFDFARPLLPNTVYVGGLMEKPIKPVPQDLENFIAKFGDSGFVLVTLGSMVNTCQNPEIFKEMNNAFAHLPQGVIWKCQCSHWPKDVHLAANVKIVDWLPQSDLLAHPSIRLFVTHGGQNSIMEAIQHGVPMVGIPLFGDQPENMVRVEAKKFGVSIQLKKLKAETLALKMKQIMEDKRYKSAAVAASVILRSHPLSPTQRLVGWIDHVLQTGGATHLKPYVFQQPWHEQYLLDVFVFLLGLTLGTLWLCGKLLGMAVWWLRGARKVKET
B7: enzyme (Candida albicans, UniProt A0A1D8PHX1); chain MISIIQNGISQLSSVSGLDEANLKILICTLLSFPFGIIFKRLPDHDYTLKNIYNVAVSCFYVFGICDLRFGISTLLISATGSYFITRYVRTKSMPWINFLFLMIHMAYSHFHLQFFKEYDPKSIDITGAQMILVMKLSAFGWNIHDGKQPRSTLNDFNKARAITKHPNVLPYIGYVFFYASLLTGPAFDYADYDKFIHGTLFDDVPQDKRPGKNKRRIPRSGVQAFKKFSLGFFWAFLLLQSDKFVTMEYMFSPEFVQYHGLFYRIIYMWILGFTFRLKYYTIWTIAEGACILCGIGYNGVDPETGEFKWNRVQNIDPWSFETGQNVHACLEAWNQNTNIWLKNYVYLRVAKPGKKPGFKSTIFTFTTSAFWHGTRPGYYLTFVVGALMQTVGKYYRRNFRPIFLEADGKTPKPTKIVYDFVCWVNTQLAFGFFVQPFVILGFTKSLECWATVYYWLLWVIAISFFAFSGPFAKSVSKFFKSLQPSYREQQRKSREDKYKLNNEEASIVEQAVGAKLGQDYDIPALGLPPFDVFTDFDQTEVDHDIQHLRKAWTSFRGRRGSITENDFDGLKDAYNNFTNEINDIFNTKKEEFKKEKLNKQN
UniProt H6U1I8, sequence (whole entry, looked up): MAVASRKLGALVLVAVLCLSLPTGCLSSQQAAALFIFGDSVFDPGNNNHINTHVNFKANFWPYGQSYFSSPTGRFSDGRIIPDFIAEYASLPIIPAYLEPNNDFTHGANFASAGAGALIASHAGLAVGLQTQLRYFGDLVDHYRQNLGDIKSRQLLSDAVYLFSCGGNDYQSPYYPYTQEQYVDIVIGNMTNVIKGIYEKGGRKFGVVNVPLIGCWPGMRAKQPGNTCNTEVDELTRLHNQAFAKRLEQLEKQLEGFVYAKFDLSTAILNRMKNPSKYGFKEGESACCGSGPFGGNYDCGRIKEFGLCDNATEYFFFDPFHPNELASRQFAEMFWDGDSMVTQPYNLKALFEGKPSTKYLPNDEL
UniProt Q99518, sequence (whole entry, looked up): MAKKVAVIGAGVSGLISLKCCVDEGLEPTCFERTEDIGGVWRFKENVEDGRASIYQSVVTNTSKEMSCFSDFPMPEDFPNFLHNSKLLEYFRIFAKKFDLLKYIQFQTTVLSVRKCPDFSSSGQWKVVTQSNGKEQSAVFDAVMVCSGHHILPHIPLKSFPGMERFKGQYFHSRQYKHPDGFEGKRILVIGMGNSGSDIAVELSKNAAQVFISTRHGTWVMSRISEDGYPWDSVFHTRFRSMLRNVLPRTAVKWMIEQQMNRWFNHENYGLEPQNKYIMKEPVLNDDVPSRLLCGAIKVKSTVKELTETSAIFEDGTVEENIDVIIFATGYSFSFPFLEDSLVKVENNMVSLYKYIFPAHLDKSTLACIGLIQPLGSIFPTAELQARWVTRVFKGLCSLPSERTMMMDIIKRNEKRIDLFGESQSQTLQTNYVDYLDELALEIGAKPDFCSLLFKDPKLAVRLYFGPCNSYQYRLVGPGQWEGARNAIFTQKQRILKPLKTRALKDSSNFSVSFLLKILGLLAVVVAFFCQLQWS
UniProt O60656, sequence (whole entry, looked up): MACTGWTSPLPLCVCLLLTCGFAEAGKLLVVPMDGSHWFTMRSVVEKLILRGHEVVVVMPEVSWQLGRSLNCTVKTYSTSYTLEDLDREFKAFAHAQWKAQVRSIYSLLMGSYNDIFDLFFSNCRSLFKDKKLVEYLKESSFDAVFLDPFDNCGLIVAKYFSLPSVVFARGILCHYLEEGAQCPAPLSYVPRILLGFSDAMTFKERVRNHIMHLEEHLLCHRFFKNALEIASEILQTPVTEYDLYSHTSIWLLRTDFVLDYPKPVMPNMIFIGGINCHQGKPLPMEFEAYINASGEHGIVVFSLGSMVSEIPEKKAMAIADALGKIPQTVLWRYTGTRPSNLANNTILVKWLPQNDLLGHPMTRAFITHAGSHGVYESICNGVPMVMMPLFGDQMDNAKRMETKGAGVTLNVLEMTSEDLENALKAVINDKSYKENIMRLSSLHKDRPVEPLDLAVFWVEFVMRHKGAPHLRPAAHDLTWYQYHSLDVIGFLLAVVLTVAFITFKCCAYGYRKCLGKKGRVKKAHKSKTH

| Substance | substrate | matrix | pH | temperature | setting | added | Vmax/Km |
| --- | --- | --- | --- | --- | --- | --- | --- |
| B1 (FMO3 N61S) | CN1CCC[C@H]1c1cccnc1 | HEK293 microsomes |  | 37 °C | not purified | NADPH regenerating system | 0.0039 µL/min/mg |
| B2 (COMT) | O=c1oc2c(O)c(O)ccc2cc1-c1nc2ccccc2s1 | human liver S9 | pH 7.4 | 37 °C |  |  | 112 µL/min/mg |
| B3 (enzyme R228K) | O=P(O)(O)O |  | pH 6.5 | 25 °C | apparent, not purified |  | 41.7 µL/min/mg |
| UGT1A9 (Homo sapiens, UniProt O60656) | COc1ccc(-c2oc3cc(O)cc(O)c3c(=O)c2OC)cc1O |  | pH 7.4 | 37 °C |  |  | 4570 µL/min/mg |
| B4 (enzyme D382A) | O=P(O)(O)O |  | pH 6.5 | 25 °C | apparent, not purified |  | 46.7 µL/min/mg |
| B5 (CMBL) | Cc1oc(=O)oc1COC(=O)[C@@H]1N2C(=O)[C@@H](NC(=O)[C@H](N)c3ccccc3)[C@H]2SC1(C)C | lysate | pH 7.4 | 37 °C | not purified |  | 63.1 µL/min/mg |
| enzyme (Tanacetum cinerariifolium, UniProt H6U1I8) | CC(C)=C[C@@H]1[C@@H](C(=O)SCCn2ccnc2)C1(C)C |  | pH 7.5 | 25 °C |  |  | 1870 µL/min/mg |
| CYP2C19 (Homo sapiens, UniProt P33261) | COc1cc2c(cc1CC=C(C)C)C(=O)C[C@@H](c1ccc(O)cc1)O2 |  | pH 7.4 | 37 °C |  |  | 133 µL/min/mg |
| B6 (UGT3A2 Y74N) | O=c1ccn([C@@H]2O[C@H](CO[P@@](=O)(O)O[P@@](=O)(O)O[C@H]3O[C@H](CO)[C@@H](O)[C@H](O)[C@H]3O)[C@@H](O)[C@H]2O)c(=O)[nH]1 |  | pH 7.4 | 37 °C | not purified | 1-OH-pyrene 16 µM, MgCl2 10 mM, alamethicin | 0.013 µL/min/mg |
| FMO2 (Homo sapiens, UniProt Q99518) | CN1CCC[C@H]1c1cccnc1 | HEK293 microsomes |  | 37 °C | not purified | NADPH regenerating system | 0.0018 µL/min/mg |
| B7 (enzyme) | CCCCCCCC/C=C\CCCCCCCC(=O)SCCNC(=O)CCNC(=O)[C@H](O)C(C)(C)COP(=O)(O)OP(=O)(O)OC[C@H]1O[C@@H](n2cnc3c(N)ncnc32)[C@H](O)[C@@H]1OP(=O)(O)O |  | pH 7.4 | 37 °C | apparent, not purified |  | 1080 µL/min/mg |

Excerpt of the above:
| Substance | substrate | matrix | pH | temperature | setting | added | Vmax/Km |
| --- | --- | --- | --- | --- | --- | --- | --- |
| B5 (CMBL) | Cc1oc(=O)oc1COC(=O)[C@@H]1N2C(=O)[C@@H](NC(=O)[C@H](N)c3ccccc3)[C@H]2SC1(C)C | lysate | pH 7.4 | 37 °C | not purified |  | 63.1 µL/min/mg |
